Assay results gathered from unrelated publications.
Each numbered part is a random draw from the data of one study; scales do not carry over between parts.

Block 1
Target: Prothrombin, mature alpha-thrombin (F2, Homo sapiens, UniProt P00734)
Method: aptamer microarray, sandwich
Form: DNA with 2'F-ANA
Sample: in vitro
Concentration: 200 nM
Setting: whole 15-mer aptamer, many near background
Added: Cy3 exosite-II aptamer, 400 nM
Reading: higher = stronger binding
Strand: GGTTGGTGTGGTTGG
Modification | mean fluorescence intensity [a.u.]
2'F-ANA at 2 6 7 9 10 12 14 | 89.9
2'F-ANA at 2 4 8 12 | 744
2'F-ANA at 8 10 13 15 | 143
2'F-ANA at 5 6 8 11 12 13 15 | 94.3
2'F-ANA at 1 4 8 9 10 12 14 | 301
2'F-ANA at 1 5 6 8 9 11 13 14 | 45

Block 2
Target: Histone acetyltransferase KAT6A, both winged helices, GST fusion (KAT6A, Homo sapiens, UniProt Q92794, residues 1-181)
Method: protein binding microarray
Form: double-stranded DNA, one strand shown
Sample: in vitro
Concentration: not given
Setting: 8-mer, flanks averaged, mean of 2 arrays, mostly near background
Relative to: not given
Reading: higher = stronger binding
Construct (chain): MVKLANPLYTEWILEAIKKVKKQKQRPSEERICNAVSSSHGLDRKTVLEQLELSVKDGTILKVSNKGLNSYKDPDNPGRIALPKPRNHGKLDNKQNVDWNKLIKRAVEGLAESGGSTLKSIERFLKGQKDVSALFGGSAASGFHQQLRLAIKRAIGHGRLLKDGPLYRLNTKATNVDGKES
Strand | E-score
GTACACAC | 0.125
AAGGAAAC | -0.0435
AATAACGC | 0.0386
CCACTAAG | -0.167

Block 3
Target: Ras GTPase-activating protein-binding protein 1, full length (G3BP1, Homo sapiens, UniProt Q13283)
UniProt Q13283, sequence (whole entry, looked up): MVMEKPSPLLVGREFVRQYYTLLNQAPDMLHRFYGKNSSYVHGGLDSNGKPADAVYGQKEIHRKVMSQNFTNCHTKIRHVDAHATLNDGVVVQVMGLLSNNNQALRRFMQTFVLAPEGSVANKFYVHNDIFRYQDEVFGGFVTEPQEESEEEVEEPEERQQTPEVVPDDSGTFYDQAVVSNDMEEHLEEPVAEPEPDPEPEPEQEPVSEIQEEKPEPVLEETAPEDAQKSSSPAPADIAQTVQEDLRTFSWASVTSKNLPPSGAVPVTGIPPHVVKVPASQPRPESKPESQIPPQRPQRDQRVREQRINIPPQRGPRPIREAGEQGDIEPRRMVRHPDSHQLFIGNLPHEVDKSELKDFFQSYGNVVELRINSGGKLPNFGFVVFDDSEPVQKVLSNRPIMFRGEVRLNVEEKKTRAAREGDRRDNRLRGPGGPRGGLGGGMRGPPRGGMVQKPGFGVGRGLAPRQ
Method: RNA Bind-n-Seq
Form: RNA
Sample: in vitro
Concentration: 200 nM
Setting: whole 134-nt RNA, ends assumed
Added: 150 mM KCl
Relative to: input library
Reading: higher = stronger binding
Strand | log2 enrichment
GGGAGUUCUACAGUCCGACGAUCGUCCUGUGCUACACAUCGUAUGUACCGAAUCGGUUUUUGGAAAAAAAGGAAAAAAAGGAAAGUAUUAUGUUACGCCGUUCGGAUCUGCACUGGAAUUCUCGGGUGUCAAGG | -0.975
GGGAGUUCUACAGUCCGACGAUCCUCAAGUCCUGUGCUACACAUCGUAUGUACCGAAUCGGCCGGGCCGGCCGGGGAAAGUAUUAUGUUACGCCGUUCGGAUCUGCACUUCCAUGGAAUUCUCGGGUGUCAAGG | -0.383
GGGAGUUCUACAGUCCGACGAUCCCUCAAGUCCUGUGCUACACAUCGUAUGUACCGAAUCGGGGAGGAGGGGAGGGAAAGUAUUAUGUUACGCCGUUCGGAUCUGCACUUCCAUGGAAUUCUCGGGUGUCAAGG | 1.13

Further values, each from its own experiment
Molecule | target | test | system | setting | how to read | measurement | value
PhoQ, residues 284 288 289 292 302 303 AMDMFI | PhoP, residues 12 14 15 18 19 AGCRL (Escherichia coli, UniProt P23836) | Sort-seq, item: YFP reporter | E. coli | PhoQ-PhoP variant library, added: 10 µM Mg2+ | relative to: high Mg2+ state, higher = stronger signaling | fold induction | 0.634
